Assay results gathered from unrelated publications.
Each line is one published result; not all experiments were run side by side. ± gives the spread as reported.

O=C(NCCS)c1cccc(C(=O)NCCS)c1 — plasma concentration (rat Sprague-Dawley male; intravenous, 1 mg/kg, 0.25 h): 354 ng/mL
[123I]c1cncc(OC[C@@H]2CCN2)c1 — tissue/plasma ratio (SPECT; human, hippocampus; intravenous bolus, 7.35 mCi; baseline: tissue over plasma): 35.5
CSCC[C@@H]1NC(=O)[C@H](CC(=O)O)NC(=O)CNC(=O)[C@H](CCCNC(=N)N)NC(=O)[C@H](C)NC(=O)[C@H](CCC(=O)O)NC(=O)[C@H](CCCNC(=N)N)NC(=O)[C@@H]2CSSC[C@@H]3NC(=O)[C@H](CO)NC(=O)[C@H]([C@@H](C)O)NC(=O)[C@@H]4CCCN4C(=O)[C@H](C)NC(=O)[C@H](Cc4c[nH]c5ccccc45)NC(=O)[C@H](CC(=O)O)NC(=O)CNC(=O)[C@H](CCCNC(=N)N)NC(=O)CNC(=O)[C@H](CCC(N)=O)NC(=O)[C@@H]4CCCN4C(=O)[C@@H](NC(=O)CNC(=O)C(C)F)CSSC[C@H](NC(=O)CNC(=O)[C@H](C)NC(=O)[C@H](CC(C)C)NC(=O)[C@H](CSSC[C@@H](C(=O)NCC(N)=O)NC(=O)[C@H]([C@@H](C)O)NC(=O)[C@H](CCCNC(=N)N)NC(=O)[C@@H]4CCCN4C1=O)NC(=O)[C@H](CC(=O)O)NC(=O)[C@H](CO)NC(=O)[C@H](CC(=O)O)NC(=O)[C@H](CCC(N)=O)NC(=O)[C@H](CO)NC3=O)C(=O)N[C@@H](C(C)C)C(=O)N2 (some centres unmarked) [fluorine-18 labelled] — tissue uptake (nude mice U-87 MG xenograft, bone; intravenous, 2.5 h): 0.2 ± 0.17 %ID/g
CCCCCOc1ccc(-c2cc(-c3ccc(C(=O)N[C@H]4C[C@@H](O)[C@@H](O)NC(=O)[C@@H]5[C@@H](O)[C@@H](C)CN5C(=O)[C@H]([C@H](O)CC(N)=O)NC(=O)[C@H]([C@H](O)[C@@H](O)c5ccc(O)c(OS(=O)(=O)O)c5)NC(=O)[C@@H]5C[C@@H](O)CN5C(=O)[C@H]([C@@H](C)O)NC4=O)cc3)no2)cc1 — weight-normalised steady-state clearance (human paediatric patients 2 to 5 years, plasma; intravenous, 4.5 mg/kg once daily, day 7, mean): 0.333 mL/min/kg
CCCCCOc1ccc(-c2ccc(-c3ccc(C(=O)N[C@H]4C[C@@H](O)[C@@H](OCC[N+](C)(C)C)NC(=O)[C@@H]5[C@@H](O)[C@@H](C)CN5C(=O)[C@H]([C@@H](C)O)NC(=O)[C@H]([C@H](O)[C@@H](O)c5ccc(O)cc5)NC(=O)[C@@H]5C[C@@H](O)CN5C(=O)[C@H]([C@@H](C)O)NC4=O)cc3)cc2)cc1 — AUC(0-t) (healthy adult human, plasma; subcutaneous, 10 mg): 34000 ng·h/mL
CCCN(CCC)C(=O)Oc1c(OC)cc(-c2nc(-c3ccccc3)c(-c3cccs3)[nH]2)cc1OC — remaining compound (C57BL/6 mouse, CES1 knockout, liver homogenate; 10 µM, 1 h, 37 °C): > 50%
CC[C@H](C)[C@H](NC(=O)[C@H](CCC(=O)O)NC(=O)[C@@H](NC(=O)[C@H](CC(=O)O)NC(=O)[C@H](CC(C)C)NC(=O)[C@H](C)NC(=O)[C@H](CCSC)NC(=O)[C@H](CCCCN)NC(=O)[C@@H](NC(=O)[C@H](CC(N)=O)NC(=O)[C@H](CC(C)C)NC(=O)[C@H](CC(C)C)NC(=O)[C@H](CC(=O)O)NC(=O)[C@H](CCC(N)=O)NC(=O)[C@H](Cc1ccc(O)cc1)NC(=O)[C@H](CCC(=O)O)NC(=O)[C@H](CCCNC(=N)N)NC(=O)[C@H](CCC(=O)O)NC(=O)[C@H](CC(C)C)NC(=O)[C@H](CCCNC(=N)N)NC(=O)[C@H](C)NC(=O)[C@H](CC(C)C)NC(=O)[C@H](CCC(=O)O)NC(=O)[C@@H](N)CCC(=O)O)C(C)C)[C@@H](C)CC)C(=O)N[C@@H](C)C(=O)N[C@H](C(=O)N[C@@H](Cc1ccc(O)cc1)C(=O)N[C@@H](CCCNC(=N)N)C(=O)N[C@@H](CCCCN)C(=O)N[C@@H](CC(C)C)C(=O)N[C@@H](CC(C)C)C(=O)N[C@@H](CCC(=O)O)C(=O)N[C@@H](C)C(=O)N[C@@H](CC(C)C)C(=O)N[C@@H](CCC(=O)O)C(=O)N[C@@H](CO)C(=O)N[C@@H](CCCNC(=N)N)C(=O)O)[C@@H](C)O — hydrodynamic diameter (dynamic light scattering; Tris-HCl buffer with NaCl; 1 mg/ml, pH 7.5, 25 °C): ~540 nm
Oc1ccc2cc3ccc4cccc5ccc(c2c1)c3c45 — AUC (UPLC-AMS; human, plasma; oral, 100 ng of [14C]-BaP): 21.9 ± 17.9 fg BaP equivalents·h/mL
CCCCCCCCCCCCCCCCCC(=O)N[C@H](C(=O)N[C@H](C(=O)N[C@@H](CCCNC(=N)N)C(=O)N[C@@H](CCCNC(=N)N)C(=O)N[C@@H](C)C(=O)N[C@@H](CC(=O)O)C(=O)N[C@@H](CCCNC(=N)N)C(=O)N[C@@H](C)C(=O)N[C@@H](C)C(=O)N[C@H](C(=O)N1CCC[C@H]1C(=O)NCC(=O)NCC(=O)NCC(=O)NCC(=O)N[C@@H](CCCNC(=N)N)C(=O)NCC(=O)N[C@@H](CC(=O)O)C(=O)O)C(C)C)C(C)C)[C@@H](C)CC — clearance (ELISA; Sprague Dawley rat male, blood; intravenous, 2.415 mg/kg): 72.5 ± 10.7 mL/min/kg
CN[C@@](C)(C[18F])C(=O)O — tissue uptake (SCID mouse A549 xenograft, pancreas; 120 min, post injection): 20 ± 2.7 %ID/g
CC[C@H](C)[C@H](NC(=O)[C@@H](NC(=O)[C@H](CC(N)=O)NC(=O)[C@H](CCC(N)=O)NC(=O)[C@@H]1CCCN1C(=O)[C@@H](NC(=O)[C@H](Cc1ccc(O)cc1)NC(=O)CNC(=O)[C@H](Cc1ccc(O)cc1)NC(=O)[C@H](Cc1c[nH]c2ccccc12)NC(=O)[C@H](Cc1c[nH]cn1)NC(=O)[C@H](Cc1ccc(O)cc1)NC(=O)CCOCCOCCOCCOCCC(=O)NCCCN(CCCNC(=O)CCOCCOCCOCCOCCC(=O)NCCCC[C@@H]1NC(=O)[C@@H](Cc2ccc(O)cc2)NC(=O)[C@H](CC(=O)O)NC(=O)CNC(=O)[C@H](CCCNC(=N)N)NC1=O)CC(=O)NCCOCCOCCOCCOCCC(=O)N[C@@H](CCCCNC(=O)CC[C@H](C(=O)O)N1CCN(CC(=O)O)CCN(CC(=O)O)CC1)C(N)=O)[C@@H](C)O)C(C)C)C(=O)O [gallium-68 labelled] — SUV (PET/CT; BALB/c nude mice, female, A-431 xenograft, tumour; intravenous, dose not given, without blocking): 0.43 ± 0.21 SUV

For quick reference, copied from above:
O=C(NCCS)c1cccc(C(=O)NCCS)c1 — plasma concentration (rat Sprague-Dawley male; intravenous, 1 mg/kg, 0.25 h): 354 ng/mL
